Measured values collected from several papers.
A part holds a random share of what one study measured.

Series 1
Target: RING finger protein unkempt homolog, zinc fingers 1-6, GST-SBP tag (UNK, Homo sapiens, UniProt Q9C0B0, residues 30-357)
Chain of UniProt Q9C0B0 (30-357, looked up): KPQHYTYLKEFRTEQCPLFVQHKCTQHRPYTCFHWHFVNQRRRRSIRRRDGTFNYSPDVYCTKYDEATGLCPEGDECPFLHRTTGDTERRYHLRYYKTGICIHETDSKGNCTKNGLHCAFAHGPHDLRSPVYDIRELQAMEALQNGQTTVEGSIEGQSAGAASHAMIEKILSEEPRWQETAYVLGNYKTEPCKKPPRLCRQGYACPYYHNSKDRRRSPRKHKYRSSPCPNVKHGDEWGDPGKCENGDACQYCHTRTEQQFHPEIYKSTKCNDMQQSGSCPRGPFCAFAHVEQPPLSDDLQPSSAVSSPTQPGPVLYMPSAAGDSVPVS
Technique: RNA Bind-n-Seq
Form: RNA
Sample: in vitro
Concentration: not given
Notes: RNA with constant flanks, human-mouse chimeric sites, ends assumed
Relative to: input RNA pool
Direction: higher = stronger binding
`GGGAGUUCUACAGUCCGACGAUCUUGAAAACAAACUGAUUUAAGUUUGAGUAUCACAAUGUUAGCUUUCUAAUUCCAUAAAAGUACUUGGUUUUUACAGUUUAUAAUCUGACAUCACCCCAGCGCCAUUUAGAUCAGCUUACUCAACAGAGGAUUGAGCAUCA` gave a bound/input enrichment of 0.729 ratio.
`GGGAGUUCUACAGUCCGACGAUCGUUGCCAGCUUCCGGUUCCGUUGGGCUCGGUUCUCUCAGUGCUACGUUGUCUCUACGCUCUCAAUCCGCCAUCCAACAAACAUGGAUCAGGUAAUGCUGCAGUUUGUGCCCAGCCGGCAGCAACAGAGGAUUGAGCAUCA` gave a bound/input enrichment of 0.339 ratio.
`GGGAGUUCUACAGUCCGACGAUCUGUGAACUGUCUCUUGAUUGGGGUCUACAAGAUGACUUUUCCUGGCACAUAUUUCAAAGCAAAGACUUUGUUGCCUGCUGCUUAUUGUCUAAUUUACAGGGAUAUUUAAUUUUGUCAGGUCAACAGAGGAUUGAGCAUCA` has a bound/input enrichment of 0.334 ratio.
For `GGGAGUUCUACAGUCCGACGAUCCAGUCCCCGUGUCCCAGUGCAGGACGAUGUGAACAAAAACUCAAAGCGGACCCUCUAUUGUAGUUCUUUUUUUAAAUAAUGUGCUAUUGUUUUUAAACUUUUUUUUUUUUUUUUUAAAGACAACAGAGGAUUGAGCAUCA`, the bound/input enrichment was 7.75 ratio.
`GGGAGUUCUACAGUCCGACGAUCUUCAAAGAAAAGGGCAGCUGUGUCAUUUCAUAAGUAACUCUGGGGGAGGGAAAUUCUAACUAGUUUGUUAAUUUUCCCCCAGAUAAAGCCAAAGUGUGUGUUGAAGAACUGAGAAAAAAUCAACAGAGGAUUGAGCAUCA` has a bound/input enrichment of 0.452 ratio.
The bound/input enrichment of `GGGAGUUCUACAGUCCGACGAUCCGGAGCCCUCCUCUCCCACAGGCCCAAGAUGUGACCCACCAGUGCCUUUUGUCUUCCUGUCAGCUCUGUCAAUCACGCCUGUCCUCUGUCCCUCUCACCAAGUGCCCAAAGUGGGGAGGGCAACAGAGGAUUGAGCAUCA` is reported as 0.429 ratio.

Series 2
Target: Ras GTPase-activating protein-binding protein 1, full length (G3BP1, Homo sapiens, UniProt Q13283)
Chain of UniProt Q13283 (whole entry, looked up): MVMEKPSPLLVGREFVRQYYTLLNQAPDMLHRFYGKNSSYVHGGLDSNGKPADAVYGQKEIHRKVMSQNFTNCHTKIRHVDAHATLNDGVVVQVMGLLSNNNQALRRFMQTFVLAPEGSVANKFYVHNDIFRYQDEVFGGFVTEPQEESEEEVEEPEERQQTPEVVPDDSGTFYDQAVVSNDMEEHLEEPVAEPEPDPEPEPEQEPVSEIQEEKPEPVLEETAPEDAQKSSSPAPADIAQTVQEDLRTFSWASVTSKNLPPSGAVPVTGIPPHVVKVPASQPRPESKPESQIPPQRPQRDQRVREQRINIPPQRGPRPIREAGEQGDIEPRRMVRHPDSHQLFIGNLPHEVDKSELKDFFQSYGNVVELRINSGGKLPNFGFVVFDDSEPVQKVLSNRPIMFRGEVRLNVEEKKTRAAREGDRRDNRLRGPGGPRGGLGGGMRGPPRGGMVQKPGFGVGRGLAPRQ
Technique: RNA Bind-n-Seq
Form: RNA
Sample: in vitro
Concentration: 200 nM
Notes: whole 134-nt RNA, ends assumed
Together with: 150 mM LiCl
Relative to: input library
Direction: higher = stronger binding
Library: 7-deaza-guanosine replaces G
With `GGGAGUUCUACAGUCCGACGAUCAAGUCCUGUGCUACACAUCGUAUGUACCGAAUCGGGAAAAGGGAAAAGGAAAAGGGGAAAGUAUUAUGUUACGCCGUUCGGAUCUGCACUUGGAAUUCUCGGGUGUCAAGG` the log2 enrichment was 0.467.
`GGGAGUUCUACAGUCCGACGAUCUGCUUCUCUAUGGAAAGGACUUUCCCCCAAGCUGGACGAGGCAUUAAGAAGGAUAGAGGACUCCAGCAGGCUGACUCUACACUUCAUCAUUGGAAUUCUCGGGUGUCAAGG` has a log2 enrichment of 0.675.
`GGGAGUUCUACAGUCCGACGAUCAGUCCUGUGCUACACAUCGUAUGUACCGAAUCGGUUUGGUUUUUUUGGAAAAAAAGGAAAGUAUUAUGUUACGCCGUUCGGAUCUGCACUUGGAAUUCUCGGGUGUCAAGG` has a log2 enrichment of -1.81.
For `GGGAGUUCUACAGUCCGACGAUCCCUCAAGUCCUGUGCUACACAUCGUAUGUACCGAAUCGGGUGGGUGGGAGGGAAAGUAUUAUGUUACGCCGUUCGGAUCUGCACUUCCAGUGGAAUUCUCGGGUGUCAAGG`, the log2 enrichment was 0.489.
The log2 enrichment of `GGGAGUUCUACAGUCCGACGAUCGGACAAGAAUCCUUCAAGAAACAGGAAAAAACUCCUAAAACACCAAAAGGACCUAGUUCUGUAGAAGACAUUAAAGCAAAAAUGCAAGCAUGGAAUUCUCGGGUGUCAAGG` is reported as 1.04.
With `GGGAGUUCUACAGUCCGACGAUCCAAGUCCUGUGCUACACAUCGUAUGUACCGAAUCGGAAAAGGAAAAGGGAAAAGGGAAAGUAUUAUGUUACGCCGUUCGGAUCUGCACUUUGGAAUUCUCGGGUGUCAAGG` the log2 enrichment was -0.972.
The log2 enrichment of `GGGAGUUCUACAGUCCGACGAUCGCAGGAAGUAAAAACAAAUGGAAAUGCUUCGGAUAGUGGCAGGGGUGGGGGAUGCUAAGGAAAGGGUGGGAUGGGAGUGGGUAAAGAGUUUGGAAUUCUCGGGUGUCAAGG` is reported as -0.318.
With `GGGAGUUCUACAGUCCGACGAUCUCAAGUCCUGUGCUACACAUCGUAUGUACCGAAUCGGGAAAAAGGGUGGGAGGGAAAGUAUUAUGUUACGCCGUUCGGAUCUGCACUUCCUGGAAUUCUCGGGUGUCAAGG` the log2 enrichment was -0.323.
`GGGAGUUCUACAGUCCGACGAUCCAAGUCCUGUGCUACACAUCGUAUGUACCGAAUCGGGGUUUGGGGUGGGGAGGGGAAAGUAUUAUGUUACGCCGUUCGGAUCUGCACUUCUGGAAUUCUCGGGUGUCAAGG` gave a log2 enrichment of 0.426.
`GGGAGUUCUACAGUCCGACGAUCCCUCAAGUCCUGUGCUACACAUCGUAUGUACCGAAUCGGGUGGGAGGGUGGGAAAGUAUUAUGUUACGCCGUUCGGAUCUGCACUUCCAGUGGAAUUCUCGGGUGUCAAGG` has a log2 enrichment of 0.0287.
The log2 enrichment of `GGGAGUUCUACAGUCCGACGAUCUUGCGGCAGCCGCCCCCUUCUGCGCGGUCACGCCGAGCCAGCGCCUGGGCCUGGAACCGGGCCGUAGCCCCCCCAGUUUCGCCCACCACCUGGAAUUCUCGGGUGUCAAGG` is reported as 0.268.

Series 3
Target: Sal-like protein 4, full length isoform B (SALL4, Homo sapiens, UniProt Q9UJQ4-2, residues 1-616)
Technique: universal PBM
Form: double-stranded DNA, one strand shown
Sample: in vitro
Concentration: not given
Notes: 8-mer, flanks averaged, mean of replicates
Direction: higher = stronger binding
With `CAAAGTCG` the E-score was -0.117.
`CGTCACAC` gave an E-score of -0.178.
The E-score of `ATCGATTC` is reported as -0.0256.
`AGGGTGCC` gave an E-score of -0.0701.
`CCAAGCTC` gave an E-score of -0.217.
For `AGTTGGTG`, the E-score was -0.215.
For `TTAATAAA`, the E-score was 0.445.
`GTGGCTTA` has an E-score of 0.00025.
For `ATTTAGCC`, the E-score was 0.139.
The E-score of `CCACCTAG` is reported as -0.231.
`GCAAGAAA` gave an E-score of 0.0504.
With `CGTCATCA` the E-score was 0.0519.
`ATGGTGTC` has an E-score of 0.0537.
With `AGCCTGCA` the E-score was -0.186.
With `AAGAACTG` the E-score was -0.0443.
`CACGACTC` has an E-score of -0.102.
For `ATCAATTG`, the E-score was 0.249.
The E-score of `ATATTGAT` is reported as 0.382.
`ATTATACC` has an E-score of 0.311.
For `AGAACATG`, the E-score was 0.145.
`GACTCGTA` has an E-score of 0.00715.
For `GCCCATTA`, the E-score was 0.0125.
`TACCTAGA` gave an E-score of 0.152.
`CCACACAC` has an E-score of -0.0962.
`CCCCTTGC` gave an E-score of -0.276.

Series 4
Organism: Saccharomyces cerevisiae
Read-out: cell growth
Technique: competitive growth deep sequencing
Form: peptide
Notes: peptide tiling library
Together with: cyclin F-Cln2 fusion
Direction: direction not given
The enrichment score of `VLLKRLQDVVSERANH` is reported as -0.455.
The enrichment score of `PLRKAKRARLCSSSSS` is reported as 2.02.
For `ESSTVSEEDYFSSHRD`, the enrichment score was 0.656.
The enrichment score of `TRRRLFVENDSP` is reported as 4.18.
The enrichment score of `PFSENVSAVQKLDFSD` is reported as 1.84.
`KDDDKAWEYEERDRRS` gave an enrichment score of -0.407.
`KSKHEEEEWTDDDLVE` has an enrichment score of 1.49.
`RDLFDCDFGDLTPLDF` has an enrichment score of 1.4.
With `IQKKLRFEDTLEFVGF` the enrichment score was 1.87.
The enrichment score of `KRRLDLETDHQY` is reported as 3.67.
`SPREGHMMDALYAQVK` has an enrichment score of 0.344.
For `LAKRALKYTD`, the enrichment score was 0.829.
The enrichment score of `QDYERRLLRQIVIQNE` is reported as -0.578.

Series 5
Target: Transcription factor SOX-2, HMG box (SOX2, Homo sapiens, UniProt P48431, residues 37-118)
Chain of UniProt P48431 (37-118, looked up): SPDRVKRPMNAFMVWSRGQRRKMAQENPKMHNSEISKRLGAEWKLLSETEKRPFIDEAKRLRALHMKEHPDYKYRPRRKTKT
Technique: protein-binding microarray
Form: hairpin DNA
Sample: in vitro
Concentration: not given
Notes: whole hairpin DNA, median over replicate spots
Relative to: not given
Direction: higher = stronger binding
Constant ends, left off below: GCAGGCC … GGCCTGCACACTCTTTCCCTACACGAC
With `CACAACTGGCCTCCTGGCCAGTTGTG` the median fluorescence was 2500 a.u.
For `CCGAATGGGCCTCCTGGCCCATTCGG (5mC at 9 31)`, the median fluorescence was 2490 a.u.
The median fluorescence of `CACACGGGGCCTCCTGGCCCCGTGTG` is reported as 2460 a.u.
For `CACACTGGGCCTCCTGGCCCAGTGTG`, the median fluorescence was 2390 a.u.
`CACAATGGGCCTCCTGGCCCATTGTG (5mC at 8)` gave a median fluorescence of 3530 a.u.
For `CACAATCTGCCTCCTGGCAGATTGTG`, the median fluorescence was 2970 a.u.
`CACAATGTGCCTCCTGGCACATTGTG` gave a median fluorescence of 3150 a.u.
For `CACCCTGGGCCTCCTGGCCCAGGGTG (5mC at 11)`, the median fluorescence was 2450 a.u.
For `CAGAATGGGCCTCCTGGCCCATTCTG (5mC at 31)`, the median fluorescence was 2540 a.u.
`GACAATGGGCCTCCTGGCCCATTGTC (5mC at 33)` has a median fluorescence of 3440 a.u.
The median fluorescence of `CACAATCAGCCTCCTGGCTGATTGTG (5mC at 14)` is reported as 2880 a.u.
The median fluorescence of `CGCAATGGGCCTCCTGGCCCATTGCG` is reported as 2570 a.u.
For `CACAATGGGCCTCCTGGCCCATTGTG (5mC at 27)`, the median fluorescence was 3250 a.u.
The median fluorescence of `CACAATCCGCCTCCTGGCGGATTGTG (5mC at 14)` is reported as 2790 a.u.

Some of these lines once more (series 3):
`CGTCACAC` gave an E-score of -0.178.
The E-score of `ATCGATTC` is reported as -0.0256.
`AGGGTGCC` gave an E-score of -0.0701.
`CCAAGCTC` gave an E-score of -0.217.
For `AGTTGGTG`, the E-score was -0.215.
For `TTAATAAA`, the E-score was 0.445.
`GTGGCTTA` has an E-score of 0.00025.
For `ATTTAGCC`, the E-score was 0.139.
The E-score of `CCACCTAG` is reported as -0.231.
`GCAAGAAA` gave an E-score of 0.0504.
With `CGTCATCA` the E-score was 0.0519.
`ATGGTGTC` has an E-score of 0.0537.
